Published values collected from several papers.
Parts stem from different laboratories: compare values within a part only. Substitutions count along the parent as printed.

Series 1
Target: CCNE1, cyclin fold, Cln2 fusion (human)
Technique: yeast growth competition, sequencing
Matrix: yeast
Setting: strong parent motif
Relative to: not given
Reading: higher = stronger binding
Starting sequence: RBL1 docking peptide (human); GSAKRRLFGEDPP
Change | normalised enrichment score
P13Y | 5.58
L7G | 0.0953
D11Y | 5.46
D11T | 6.15
L7E | -0.337
P13E | 6.16
L7P | 0.357
E10A | 5.11
F8L | 0.527
A3G | 1.76
F8P | 0.266
G9E | 6.94
E10D | 6.46
D11N | 5.42
A3V | 7.55
S2K | 6.04
E10R | 3.29
P12E | 7.31
D11F | 4.14
G1S | 6.72
D11C | 5.3
S2L | 4.53
K4H | 1.07
D11A | 4.74
P13Q | 5.31

Series 2
Target: XBP1, bZIP domain (human)
Technique: DHFR protein complementation
Matrix: yeast
Setting: single substitutions, most at no-binding floor
Relative to: wild-type JUN-FOS pair
Reading: higher = stronger binding
Starting sequence: JUN, bZIP domain (human); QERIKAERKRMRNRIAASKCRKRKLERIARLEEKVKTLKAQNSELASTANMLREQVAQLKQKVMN; partner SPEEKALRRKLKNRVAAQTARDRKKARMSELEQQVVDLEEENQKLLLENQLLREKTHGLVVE
Change | binding fitness
S47F | -0.885 natural log
S47V | -0.685 natural log
Q55W | -1.16 natural log
R30S | -0.49 natural log
L38Q | -1.54 natural log
L45W | -1.38 natural log
A40R | -0.649 natural log
L38Y | -1.55 natural log
T37M | -0.351 natural log
A57P | -1.46 natural log
A49M | -1.29 natural log
E33C | -1.29 natural log
E54V | -1.26 natural log
L38V | -1.34 natural log
T48V | -0.93 natural log
V35K | -1.49 natural log
K39I | -1.24 natural log
A46Q | -0.44 natural log
K39M | -1.26 natural log

Series 3
Target: Prothrombin, mature alpha-thrombin (F2, Homo sapiens, UniProt P00734)
Technique: aptamer microarray, sandwich
Form: DNA with 2'F-ANA
Matrix: in vitro
Concentration: 200 nM
Setting: whole 15-mer aptamer, many near background
Added: Cy3 exosite-II aptamer, 400 nM
Reading: higher = stronger binding
Strand: GGTTGGTGTGGTTGG
Modification | mean fluorescence intensity [a.u.]
2'F-ANA at 1 2 4 5 6 8 11 12 14 15 | 86.6
2'F-ANA at 1 4 5 6 8 12 15 | 99.6
2'F-ANA at 1 3 4 5 6 8 9 10 12 | 61.1
2'F-ANA at 2 4 5 6 7 14 15 | 116
2'F-ANA at 1 3 4 5 7 8 | 69.5
2'F-ANA at 1 2 5 7 8 9 11 12 14 | 50.4
2'F-ANA at 1 3 4 6 7 8 11 12 14 15 | 82.8
2'F-ANA at 2 5 6 7 8 12 13 14 15 | 48.7
2'F-ANA at 1 2 4 8 9 11 15 | 113
2'F-ANA at 3 4 6 9 13 14 15 | 357
2'F-ANA at 1 3 4 5 6 7 8 9 12 14 15 | 72.7
2'F-ANA at 3 8 9 11 13 | 1120
2'F-ANA at 1 2 3 5 10 15 | 88.7
2'F-ANA at 1 3 6 10 12 15 | 130
2'F-ANA at 1 3 4 5 7 10 12 | 340
2'F-ANA at 1 4 7 12 13 14 | 59.8
2'F-ANA at 5 6 7 8 9 12 13 14 | 65.9
2'F-ANA at 1 2 6 7 10 11 12 13 15 | 70
2'F-ANA at 2 3 4 5 7 9 10 11 12 13 14 15 | 50.9
2'F-ANA at 1 4 5 8 9 12 13 14 | 46.3
2'F-ANA at 2 3 4 7 8 9 10 11 12 13 | 267
2'F-ANA at 2 7 9 10 13 14 | 88.9
2'F-ANA at 1 3 6 7 9 12 13 15 | 362

Series 4
Target: Fragile X messenger ribonucleoprotein 1, C-terminal low-complexity region (Fmr1, Mus musculus, UniProt P35922)
Technique: RNA Bind-n-Seq
Form: RNA
Matrix: in vitro
Concentration: 200 nM
Setting: whole 134-nt RNA, ends assumed
Added: 150 mM KCl
Relative to: input library
Reading: higher = stronger binding
Shared flanks, not repeated: GGGAGUUCUACAGUCCGACGAUC … UGGAAUUCUCGGGUGUCAAGG
Strand | log2 enrichment
GGUAAACGCCCUGCAGAAGAUAUGGAAGAGGAACAAGCAUUUAAAAGAUCUAGAAACACUGAUGAGAUGGUUGAAUUACGCAUUCUGCUU | -0.249
AGUCCUGUGCUACACAUCGUAUGUACCGAAUCGGAAAAAGGGAAAAAGGAAAAAGGGAAAGUAUUAUGUUACGCCGUUCGGAUCUGCACU | -0.816
GUGGACAACGCGUACUGGCUGUGGACUUUCCAGGGACGCCUCCUGCAGAAGAACAACAAGGACCGCUUCUGCCAGCUGCUGUGGCGGCCC | -1.1
GCAGGAAGUAAAAACAAAUGGAAAUGCUUCGGAUAGUGGCAGGGGUGGGGGUUGCUAAGGAAAGGGUGGGAUGGGAGUGAGUAAAGAGUU | 0.217
ACCAUGCAGGUGGGCAUCUUUGGGAAGUGGGGCAAGGGGGUGAUAGGGAGGGGGGUAACACUUUGGGAACAGGUGGUCCCAGGUCGUUUC | 0.75
UGGCCCUGGCGGCAUGCGGGGAGGAAGAGGUGGCCUCAUGGAUCGUGGUGGUCCCGGUGGAAUGUUCAGAGGUGGCCGUGGUGGAGACAG | -0.0777
AAGUCCUGUGCUACACAUCGUAUGUACCGAAUCGGGUUUUUUUGGGUUUGGGUGGGAAAGUAUUAUGUUACGCCGUUCGGAUCUGCACUU | 1.02
AAGUCCUGUGCUACACAUCGUAUGUACCGAAUCGGGGCCCCGGCCCCGGCCCCGGGGAAAGUAUUAUGUUACGCCGUUCGGAUCUGCACU | -0.771
GCAGGAAGUAAAAACAAACGGAAAUGCUUCGGAUAGUGGCAGGGGUGGGGGUUGCUAAGGAAAGGGUGGGAUGGGAGUGGGUAAAGAGUU | 0.187

A few entries again (series 1):
Change | normalised enrichment score
D11Y | 5.46
D11T | 6.15
L7E | -0.337
P13E | 6.16
L7P | 0.357
E10A | 5.11
F8L | 0.527
A3G | 1.76
F8P | 0.266
G9E | 6.94
E10D | 6.46
